{"data": "Results of several laboratories", "organism": "Staphylococcus aureus"}
{"SMILES": "CCCNC(=O)[C@H](Cc1ccc(O)cc1)NC(=O)[C@H]1NC(=O)[C@@H](c2ccc(O)cc2)NC(=O)[C@H](NC(=O)[C@H](CC(N)=O)NC(=O)[C@@H](Cc2ccc(O)cc2)NC(=O)[C@@H](CC(C)C)NC)c2ccc(O)c(c2)Oc2ccc1cc2", "assay": "bacterial growth", "measurement": "IC50", "value": "> 40 µM"}
{"SMILES": "CCC(=O)OCCSCCC(=O)N[C@H](CCN)C(=O)N[C@@H](CCN)C(=O)N[C@@H](CCN)C(=O)N[C@@H](CC(C)C)C(=O)N[C@H](Cc1ccccc1)C(=O)N[C@@H](CCN)C(=O)N[C@@H](CCN)C(=O)N[C@@H](CC(C)C)C(N)=O", "system": "ATCC 6538", "conditions": "24 h, 37 °C", "measurement": "MBC", "value": "> 128 µM"}
{"SMILES": "CC(C)[C@H]1NC(=O)[C@H](Cc2ccccc2)NC(=O)[C@@H](C(C)C)NC(=O)[C@@H](C)NC(=O)[C@H](CO)NC(=O)[C@@H](Cc2c(-c3ccc(C4CCCCC4)cc3)[nH]c3ccccc23)NC(=O)[C@@H](CO)NC1=O", "assay": "broth dilution", "measurement": "MIC90", "value": "> 50 µM"}
{"SMILES": "N=C(N)NCCC[C@H](NC(=O)[C@H](CCCNC(=N)N)NC(=O)[C@H](CCCNC(=N)N)NC(=O)[C@H](CCC(N)=O)NC(=O)[C@H](CCCNC(=N)N)NC(=O)[C@H](CCCNC(=N)N)NC(=O)[C@H](CCCCN)NC(=O)[C@H](CCCCN)NC(=O)[C@H](CCCNC(=N)N)NC(=O)CNC(=O)[C@H](Cc1ccc(O)cc1)NC(=O)[C@H](Cc1ccccc1)NC(=O)[C@H](Cc1ccccc1)NC(=O)[C@H](Cc1ccccc1)NC(=O)OCC1c2ccccc2-c2ccccc21)C(=O)O", "system": "29213", "conditions": "1, 2, 4 × MIC, 0.5 h, 37 °C", "measurement": "intracellular ATP level", "value": "decreased"}
{"SMILES": "CCCNC(=O)[C@H](Cc1ccc(O)cc1)NC(=O)[C@@H](NC(=O)[C@H](NC(=O)[C@H](NC(=O)[C@H](CC(N)=O)NC(=O)[C@@H](Cc1ccc(O)cc1)NC(=O)[C@@H](CC(C)C)NC)c1ccc(O)cc1)c1ccc(O)cc1)c1ccc(O)cc1", "assay": "bacterial growth", "measurement": "IC50", "value": "> 40 µM"}
{"SMILES": "C[C@@H](N)[C@H](O)CCCCCCCC(=O)CCCCCCCCCCCCCC[C@@H](O[C@@H]1O[C@H](CO)[C@@H](O)[C@H](O)[C@H]1O)[C@@H](N)CO", "assay": "microbial growth, resazurin", "system": "ATCC12600", "conditions": "50 µM", "measurement": "inhibition", "value": "98%"}
{"SMILES": "CC[C@H](C)[C@@H]1NC(=O)[C@H](CO)NC(=O)[C@H](CCCCN)NC(=O)[C@@H]2CSSC[C@@H](C(=O)N[C@@H](Cc3ccc(O)cc3)C(N)=O)NC(=O)[C@H](CCCCN)NC(=O)[C@@H]3CSSC[C@H](NC(=O)[C@H](CCCNC(=N)N)NC(=O)[C@H](CC(C)C)NC(=O)[C@H](CC(=O)O)NC(=O)[C@H](CC(=O)O)NC(=O)[C@H](CCC(=O)O)NC(=O)[C@H](CC(N)=O)NC(=O)[C@H](Cc4c[nH]c5ccccc45)NC(=O)C(C)(CC)NC(=O)CNC(=O)[C@H](CC(N)=O)NC(=O)[C@@H](NC(=O)CNC(=O)[C@H](Cc4ccccc4)NC(=O)CN)CSSC[C@H](NC(=O)[C@H](Cc4ccc(O)cc4)NC(=O)CNC(=O)CNC(=O)[C@H](CCCCN)NC(=O)[C@H](Cc4ccc(O)cc4)NC(=O)[C@H]4CCCN4C(=O)[C@@H]4CCCN4C1=O)C(=O)N[C@@H](C)C(=O)N[C@@H](CCCCN)C(=O)N1CCC[C@@H]1C(=O)NCC(=O)N[C@@H](Cc1ccccc1)C(=O)N[C@@H](C(C)C)C(=O)N3)C(=O)N[C@@H](Cc1c[nH]cn1)C(=O)N[C@@H](CC(N)=O)C(=O)N[C@@H](Cc1c[nH]cn1)C(=O)N2 (stereo partly drawn)", "system": "467", "conditions": "24 h, 37 °C, 99.9% killing", "measurement": "MBC", "value": "8 µM"}
{"SMILES": "CC[C@H](C)[C@H](NC(=O)CNC(=O)[C@H](CCCCN)NC(=O)[C@@H](NC(=O)[C@H](Cc1c[nH]c2ccccc12)NC(=O)[C@H](CCCCN)NC(=O)[C@H](Cc1ccccc1)NC(=O)[C@@H](NC(=O)[C@H](CCCCN)NC(=O)[C@H](CCCCN)NC(=O)[C@@H](NC(=O)[C@H](Cc1c[nH]c2ccccc12)NC(=O)[C@H](Cc1c[nH]c2ccccc12)NC(=O)[C@@H](N)CCCCN)[C@@H](C)CC)C(C)C)[C@@H](C)CC)C(=O)NCC(=O)N[C@@H](CCCCN)C(=O)N[C@@H](CCC(=O)O)C(=O)N[C@H](C(=O)N[C@H](C(=O)N[C@H](C(=O)N[C@@H](CCCNC(=N)N)C(=O)N[C@H](C(=O)NCC(=O)N[C@H](C(=O)N[C@@H](CCC(=O)O)C(=O)N[C@H](C(=O)N[C@@H](C)C(=O)N[C@@H](C)C(=O)N[C@@H](CS)C(=O)N[C@@H](CCCCN)C(=O)N[C@H](C(=O)N[C@@H](CCCCN)C(=O)NCC(=O)N[C@@H](CCC(=O)O)C(=O)N[C@@H](CS)C(N)=O)[C@@H](C)CC)[C@@H](C)CC)[C@@H](C)CC)[C@@H](C)O)[C@@H](C)CC)C(C)C)C(C)C", "assay": "colony count", "system": "PBS", "conditions": "20 µg/mL, 2 h", "measurement": "bactericidal rate", "value": "100%"}
{"SMILES": "COc1cc(NC(=O)Nc2cccc(C(=O)N3CCC(C)CC3)c2)cc(OC)c1", "assay": "checkerboard", "system": "CRB, PBP4 overexpressor", "conditions": "25 µM, added: ceftobiprole", "how to read": "relative to: ceftobiprole alone over combination", "measurement": "MIC fold reduction", "value": "> 2"}
{"SMILES": "CC(C)[C@H]1NC(=O)[C@H](Cc2ccccc2)NC(=O)[C@@H](C(C)C)NC(=O)[C@@H](C)NC(=O)[C@H](CO)NC(=O)[C@@H](Cc2c(-c3ccc(-c4ccc(-c5ccccc5)cc4)cc3)[nH]c3ccccc23)NC(=O)[C@@H](C)NC1=O", "assay": "broth dilution", "measurement": "MIC90", "value": "> 50 µM"}
{"SMILES": "CC[C@H](C)[C@@H]1NC(=O)[C@@H](CCCNC(=N)N)NC(=O)[C@@H](NC(=O)[C@@H](CC(C)C)NC(=O)[C@H](C)NC(=O)[C@H](C)NC(=O)[C@@H]2CCCN2C(=O)[C@@H](CC(C)C)NC(=O)[C@@H](NC(=O)[C@@H](CCCNC(=N)N)NC(=O)[C@@H](CC(C)C)NC(=O)[C@@H](CC(C)C)NC(=O)[C@@H](NC(=O)[C@@H](CCCNC(=N)N)NC(=O)[C@@H](CC(C)C)NC(=O)[C@@H](NC(=O)[C@@H](NC(=O)CNC(=O)[C@@H](CC(C)C)NC(=O)[C@@H](N)Cc2ccccc2)[C@@H](C)O)C(C)C)C(C)C)C(C)C)CSSC[C@@H](C(=O)O)NC(=O)[C@@H](CCCNC(=N)N)NC(=O)[C@@H](CCCNC(=N)N)NC(=O)[C@H](Cc2ccccc2)NC1=O", "assay": "resazurin reduction", "system": "MRSA NCTC 12493", "measurement": "respiration-enhancing concentration", "value": "8 µM"}
{"SMILES": "Cc1ccc(-c2nc3ccc(C)cn3c2C(=O)C(=O)NCc2ccc(N(C)C)cc2)cc1", "assay": "microbial growth", "system": "SG511", "conditions": "2 mM, 20 h", "measurement": "inhibition zone", "value": "0 mm"}
{"SMILES": "CC[C@H](C)[C@@H]1NC(=O)[C@H](CO)NC(=O)C(C)(CCCCN)NC(=O)[C@@H]2CSSC[C@@H](C(=O)N[C@@H](Cc3ccc(O)cc3)C(N)=O)NC(=O)[C@H](CCCCN)NC(=O)[C@@H]3CSSC[C@H](NC(=O)[C@H](CCCNC(=N)N)NC(=O)C(C)(CC(C)C)NC(=O)[C@H](CC(=O)O)NC(=O)[C@H](CC(=O)O)NC(=O)[C@H](CCC(=O)O)NC(=O)[C@H](CC(N)=O)NC(=O)[C@H](Cc4c[nH]c5ccccc45)NC(=O)C(C)(CC)NC(=O)CNC(=O)[C@H](CC(N)=O)NC(=O)[C@@H](NC(=O)CNC(=O)[C@H](Cc4ccccc4)NC(=O)CN)CSSC[C@H](NC(=O)[C@H](Cc4ccc(O)cc4)NC(=O)CNC(=O)CNC(=O)[C@H](CCCCN)NC(=O)[C@H](Cc4ccc(O)cc4)NC(=O)[C@H]4CCCN4C(=O)[C@@H]4CCCN4C1=O)C(=O)N[C@@H](C)C(=O)N[C@@H](CCCCN)C(=O)N1CCC[C@@H]1C(=O)NCC(=O)N[C@@H](Cc1ccccc1)C(=O)N[C@@H](C(C)C)C(=O)N3)C(=O)N[C@@H](Cc1c[nH]cn1)C(=O)NC(C)(C)C(=O)N[C@@H](Cc1c[nH]cn1)C(=O)N2 (stereo partly drawn)", "system": "ATCC 49775", "conditions": "24 h", "measurement": "MBC", "value": "2 µM"}
{"SMILES": "CC(C)[C@H]1NC(=O)[C@H](Cc2ccccc2)NC(=O)[C@@H](C(C)C)NC(=O)[C@@H](C)NC(=O)[C@H](C)NC(=O)[C@@H](Cc2c(-c3ccc(-c4ccc5ccccc5c4)cc3)[nH]c3ccccc23)NC(=O)[C@@H](CO)NC1=O", "assay": "broth dilution", "measurement": "MIC90", "value": "> 50 µM"}
{"SMILES": "CN[C@H](CC(C)C)C(=O)N[C@H]1C(=O)N[C@@H](CC(N)=O)C(=O)N[C@H]2C(=N)N[C@H]3C(=O)N[C@H](C(=O)N[C@H](C(=O)NCCCNC(=N)N)c4cc(O)cc(O)c4-c4cc3ccc4O)[C@H](O)c3ccc(c(Cl)c3)Oc3cc2cc(c3O[C@@H]2O[C@H](CO)[C@@H](O)[C@H](O)[C@H]2O[C@H]2C[C@](C)(NCc3ccc(-c4ccc(Cl)cc4)cc3)[C@H](O)[C@H](C)O2)Oc2ccc(cc2Cl)[C@H]1O", "system": "VRS2 VanA VRSA, mouse neutropenic thigh infection, thigh", "conditions": "subcutaneous, 25 and 12.5 mg/kg once at 2 h, 26 h", "measurement": "reduction of bacterial count", "value": "≥ 1 log10 CFU/g"}
{"note": "A few entries again:"}
{"SMILES": "CC(C)[C@H]1NC(=O)[C@H](Cc2ccccc2)NC(=O)[C@@H](C(C)C)NC(=O)[C@@H](C)NC(=O)[C@H](C)NC(=O)[C@@H](Cc2c(-c3ccc(-c4ccc5ccccc5c4)cc3)[nH]c3ccccc23)NC(=O)[C@@H](CO)NC1=O", "assay": "broth dilution", "measurement": "MIC90", "value": "> 50 µM"}
{"SMILES": "CN[C@H](CC(C)C)C(=O)N[C@H]1C(=O)N[C@@H](CC(N)=O)C(=O)N[C@H]2C(=N)N[C@H]3C(=O)N[C@H](C(=O)N[C@H](C(=O)NCCCNC(=N)N)c4cc(O)cc(O)c4-c4cc3ccc4O)[C@H](O)c3ccc(c(Cl)c3)Oc3cc2cc(c3O[C@@H]2O[C@H](CO)[C@@H](O)[C@H](O)[C@H]2O[C@H]2C[C@](C)(NCc3ccc(-c4ccc(Cl)cc4)cc3)[C@H](O)[C@H](C)O2)Oc2ccc(cc2Cl)[C@H]1O", "system": "VRS2 VanA VRSA, mouse neutropenic thigh infection, thigh", "conditions": "subcutaneous, 25 and 12.5 mg/kg once at 2 h, 26 h", "measurement": "reduction of bacterial count", "value": "≥ 1 log10 CFU/g"}
